Assay results pooled from the literature.
Numbered parts are unrelated; each lists some results of a single study.

Set 1
Target: Interferon regulatory factor 5, full length, phosphomimetic (IRF5, Homo sapiens, UniProt Q13568-2, residues 1-514, K96S/S451D/S453D/S456D/S462D)
Method: protein-binding microarray
Molecule type: double-stranded DNA, one strand shown
Sample: in vitro
Concentration: 250 nM
Setting: 60-bp whole probe
Together with: salmon DNA 0.4 mg/ml
Baseline: random background probes
Reading: higher = stronger binding
Constant ends, left off below: GCCTAGCAC … GTCTTGATTCGCTTGACGCTGCTG
Sequence	log fluorescence [z-score]
GACGAACTGAGTTTAGAGACGTGCTAG	-0.135
TCAACTCTCTGCTTGTAACTGTGCTAG	0.408
TTAGGTTTCGGACTGGGTGAGTGCTAG	5.27
TTAGGTATCGGACTTGGTTAGTGCTAG	1.28
ATAGGTATCGGACTGGGTTAGTGCTAG	1.25
TGGCTTTCCTTTATGTCCTGGTGCTAG	0.757
TTGGGTCTCCTTTTCCTTTAGTGCTAG	0.106
CTAATTCTCTTTTCACTTTCGTGCTAG	5.08
GACGAACTGGAGACTGGAGACGTGCTA	-0.453
GACGGTTCCGGGTATCGGGACGTGCTA	0.68
TTAGGTATCGGGTGTCGGTTAGTGCTA	3.09
TTAGGTTTCCTTTCCCTATAGTGCTAG	1.74
TTAGCTTCCGGTTTCGGTTAGTGCTAG	9.94
TTAGGTCTCCATTTCCTTTAGTGCTAG	0.424
TTAAGTATCCTTCTCCTTTAGTGCTAG	0.592
TCAGTTTCCTCTTTCTTACTGTGCTAG	2.16
GAATTTCCCACTTTCACTTCGTGCTAG	6.48
TTAGAACTGACACTGGATTAGTGCTAG	-0.121
TCAGATGTGTATATGACACTGTGCTAG	-0.0973

Set 2
Target: Ras GTPase-activating protein-binding protein 1, full length (G3BP1, Homo sapiens, UniProt Q13283)
UniProt Q13283, sequence (whole entry, looked up): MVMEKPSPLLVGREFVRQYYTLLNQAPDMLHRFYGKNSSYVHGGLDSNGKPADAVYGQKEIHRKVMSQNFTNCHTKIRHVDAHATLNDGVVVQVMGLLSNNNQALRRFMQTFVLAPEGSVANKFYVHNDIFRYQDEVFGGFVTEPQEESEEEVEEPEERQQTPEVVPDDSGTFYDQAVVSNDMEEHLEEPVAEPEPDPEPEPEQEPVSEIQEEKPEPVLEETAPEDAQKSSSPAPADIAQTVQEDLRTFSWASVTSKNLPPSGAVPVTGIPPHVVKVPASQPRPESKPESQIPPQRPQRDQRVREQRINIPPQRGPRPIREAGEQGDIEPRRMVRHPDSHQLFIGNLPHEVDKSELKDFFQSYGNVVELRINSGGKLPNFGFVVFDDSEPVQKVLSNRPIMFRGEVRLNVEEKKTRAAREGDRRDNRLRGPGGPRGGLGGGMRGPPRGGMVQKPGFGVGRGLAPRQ
Method: RNA Bind-n-Seq
Molecule type: RNA
Sample: in vitro
Concentration: 200 nM
Setting: whole 134-nt RNA, ends assumed
Together with: 150 mM LiCl
Baseline: input library
Reading: higher = stronger binding
Each molecule: 7-deaza-guanosine replaces G
Sequence	log2 enrichment
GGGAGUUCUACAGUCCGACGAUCCACAGACAACACGCACCCACACAGACACAGAGGUAAGGGGUUGGGAUGGGGACAGGGUGCACAGCAGGGCGGGGUAGGACCCCAGCCCCUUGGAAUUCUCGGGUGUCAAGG	0.295
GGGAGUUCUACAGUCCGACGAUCUGGCCCUGGUGGCAUGCGGGGAGGAAGAGGUGGCCUCAUGGAUCCUGGUGGUCCCGGUGGAAUGUUCAGAGGUGGCCGUGGUGGAGACAGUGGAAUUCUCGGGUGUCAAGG	-0.337
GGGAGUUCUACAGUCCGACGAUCACCAUGCAGGUGGGCAUCUUAGGGAAGUGGGGCAAGGGGGGGAUAGGGAGGGGGGUAACACUUUGGGAACAGGUGGUCCCAGGUCGUUUCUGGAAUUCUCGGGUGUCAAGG	0.187
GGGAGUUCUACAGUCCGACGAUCUCCUGUGCUACACAUCGUAUGUACCGAAUCGGAAAAAAAGGAAAAAAAGGGAAAAAAAGGAAAGUAUUAUGUUACGCCGUUCGGAUCUGCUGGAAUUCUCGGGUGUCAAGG	-0.422
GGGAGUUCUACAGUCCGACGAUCCCUGUGCUACACAUCGUAUGUACCGAAUCGGGGCCCCCCCGGGCCCCCCCGGCCCCCCCGGAAAGUAUUAUGUUACGCCGUUCGGAUCUGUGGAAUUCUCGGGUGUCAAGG	0.761
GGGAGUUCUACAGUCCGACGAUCGUCCUGUGCUACACAUCGUAUGUACCGAAUCGGUUUUUUGGUUUUUUGGGGUUUUUUGGAAAGUAUUAUGUUACGCCGUUCGGAUCUGCAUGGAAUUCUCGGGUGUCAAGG	-0.606
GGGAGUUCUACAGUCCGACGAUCUGGGAGGUGGAUUUUGUUUAUUUUUUUAGCUCAUUUCCAGGGGUGGGAAUUUUUUUUUAAUAUGUGUCAUGAAUAAAUUUGUUUUUGAAAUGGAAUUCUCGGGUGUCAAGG	-0.222
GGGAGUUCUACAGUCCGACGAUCGGAUCAAAGCAAGUUGGAGAAACAUCAGCACCUGGAGACACCUUAGAUGGCACACCUCGUACUCUCAAUACUGUCUUUGAUUUCCCACCAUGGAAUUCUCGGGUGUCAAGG	0.406
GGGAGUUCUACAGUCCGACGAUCGUCCUGUGCUACACAUCGUAUGUACCGAAUCGGGGAAAAAAAGGGGUUUGGGGUGGGGAAAGUAUUAUGUUACGCCGUUCGGAUCUGCACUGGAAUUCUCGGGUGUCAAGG	-1.25
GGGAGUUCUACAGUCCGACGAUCAAGUCCUGUGCUACACAUCGUAUGUACCGAAUCGGUUUGGAAAAAGGUUUUUUUGGAAAGUAUUAUGUUACGCCGUUCGGAUCUGCACUUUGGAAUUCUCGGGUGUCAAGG	-1.69
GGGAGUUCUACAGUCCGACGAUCUCAAGUCCUGUGCUACACAUCGUAUGUACCGAAUCGGUUUGGUGGUUUUUUUGGAAAGUAUUAUGUUACGCCGUUCGGAUCUGCACUUCCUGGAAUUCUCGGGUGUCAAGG	0.13

Set 3
Target: RNA binding protein fox-1 homolog 2, RRM domain, GST-SBP tag (RBFOX2, Homo sapiens, UniProt O43251-10, residues 100-194)
Method: RNA Bind-n-Seq
Molecule type: RNA
Sample: in vitro
Concentration: 365 nM
Setting: natural RNA segment, single round, ends assumed
Baseline: no-protein control
Reading: higher = stronger binding
Target sequence (chain): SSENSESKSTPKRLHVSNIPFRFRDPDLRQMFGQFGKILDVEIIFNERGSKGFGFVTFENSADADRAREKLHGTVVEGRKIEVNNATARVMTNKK
Sequence	RBNS enrichment (R)
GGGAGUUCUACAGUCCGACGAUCUACUCUUAACUGUUUAUGCAAAUUGUAUAAGGUUUCUUAUGCCCAAGCUUGAAAAAUGAUUUCCCAGUAGACAAGAGGCCCCCACCCAUCCUCCAAUUGUGUUUAUUUACUGGAAUUCUCGGGUGCCAA	0.931
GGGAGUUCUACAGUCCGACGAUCCCUGUUUUGAAGUGCUAUUACCUUUCUCAGUUACCAGAAUCUUGCUGCUAAAGUUGCAAGUGAUUGAUAAUGGAUUUUUAACAGAGAAGUCUUUGUUUUUGAAAAACAAAUGGAAUUCUCGGGUGCCAA	0.45
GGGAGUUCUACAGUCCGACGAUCCAGAAGAACCCUUAGUGUCCACCUGGCCCUAUGUUUCCCAGAAUUCAAGCGGAAAACAUCUGAGAAUGGCUUUCCCAUAUUGCAUUACGGCAUGCAGAAGGCUUUAUUUUUGGAAUUCUCGGGUGCCAA	0.481
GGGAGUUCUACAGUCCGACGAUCAAAAUGAUGAAACGGAAAUCGGUCCUGUCGUCUUGUUAGCAUGAUUCAUGUAUUUAUAUAGAUCCGAUUAUUUUAAUUUUUGCUUUCUUUGUGUAAAUUUUAUGUACAGAUGGAAUUCUCGGGUGCCAA	6.78
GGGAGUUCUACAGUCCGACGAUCCUUGCUGGUGUCCUGGGCAGCACCAUGAAUGCCUUUACCAAGACAUGCCAAGUUGGAUCCCCCGAAUGAAGCAGAUGUGGCUGUGGUGUGACCCUUGCUCCCUGCUACACUGGAAUUCUCGGGUGCCAA	0.364
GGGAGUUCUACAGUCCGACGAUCAAGACUGGAGGGCAGCGGGGAGACUUCCAUCGGGCUAGAGUGCCACACUCUCCAGUCAUGUCUCCCAAGGGGAUGCAAUUCAGGCUGAGGAAAAGAUGCCAUAUCCCUCUUGGAAUUCUCGGGUGCCAA	0.351
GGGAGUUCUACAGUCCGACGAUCCAAGCACCGAGCAAACCCUAGGGUGUGCCUCACCUGCGAUGCUGUGGGCAAACACUUCUCAGCUGGUCCAUUUUUACAACGAUUGAAAAUCUAGAAGCCUUCUCAUGUUGUGGAAUUCUCGGGUGCCAA	0.288
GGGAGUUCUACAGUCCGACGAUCUAGAAUUAAGUUAAUUUCUUCUCUUUCCAUCUACCUUUUUAUAAAUACAUAUCUAUGUCUCAUAAAAAUUAGAAUGUACUAUUUUAAAAUAAUAUGUGUAAAUUGAAAUUUGGAAUUCUCGGGUGCCAA	0.818
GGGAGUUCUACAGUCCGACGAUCUCCCCUUGAGUUGGGGCUGAUAUAGCAGGAGUGAAUCUUGUGGGGGAGUUUUUUUCCUCCACAUUUUGAGAUUUUGUGAUAAAUGGGAUGUGUGCCCACCCCUGACAUCUUGGAAUUCUCGGGUGCCAA	0.3
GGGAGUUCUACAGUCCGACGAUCAGAAAAAAUGAAUGUAUUCCUGUUUUUGAAGAGAAGAAUAAUUUUUUUUUUCUCUAGGGAGAGGUACAGUGUUUAUAUUUUGGAGCCUUCCUGAAGGUGUAAAAUUGUAAUGGAAUUCUCGGGUGCCAA	0.538
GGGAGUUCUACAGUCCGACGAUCUUUUUCUGAAAAAAUAUAUAUACAUAUAUUGCUUUAUUUGAAACAAAUUAAAAUAUGCUGCAUUUGACACCUGGCUAGUUUCUUUUAUUGAUACCCACCUAGUUAUUGAAUGGAAUUCUCGGGUGCCAA	1.17
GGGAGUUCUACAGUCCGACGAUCUUAAAAAUGUGGACUUCAUAGGAAGGCGUGAGUACAAUUAGUAUAAUGCAUAACUCAUUGUUGUCCUAGAUAUUUUGAUAUUUACCUUUAUGUUGAAUGCUAUUAAAUGUUGGAAUUCUCGGGUGCCAA	0.908

Set 4
Target: Histone acetyltransferase KAT6A, winged helix 1, GST fusion (KAT6A, Homo sapiens, UniProt Q92794, residues 1-85)
Method: protein binding microarray
Molecule type: double-stranded DNA, one strand shown
Sample: in vitro
Concentration: not given
Setting: 8-mer, flanks averaged, mean of 2 arrays, mostly near background
Baseline: not given
Reading: higher = stronger binding
Target sequence (chain): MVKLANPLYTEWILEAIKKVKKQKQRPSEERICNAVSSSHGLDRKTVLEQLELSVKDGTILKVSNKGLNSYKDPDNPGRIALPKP
Sequence	E-score
CCTTCGCC	0.134
CACAACCA	-0.0665
CCATAAGC	0.0552
ACGGTATG	0.119
TACACATA	-0.0444
CAAACAGG	-0.19
CGCTCGAC	0.146
TATGTAAA	-0.124
CATTGAAG	-0.107
TAATACCA	0.00456
ATTGACGG	0.239
GAAGCTTA	-0.0632
CGACAACC	0.0295
GGACCGAC	0.239
AAAGCGAG	0.0734
AGATTCCA	-0.203
AAACCGAG	0.0166
CTTTAGTA	-0.0516
GATTGTGA	-0.0765
GCAAGAGA	-0.102
